Measurements from different studies.
Numbers after ± are the reported error.
rep main protease: Replicase polyprotein 1ab, main protease (rep, Severe acute respiratory syndrome coronavirus 2, UniProt P0DTD1)

| SMILES | tested on | test | system | setting | endpoint | result |
| --- | --- | --- | --- | --- | --- | --- |
| O=C(N1CCC2(CC1)CC(CNCC(F)(F)F)CCO2)C1(c2ccccc2)CCCC1 (centres unmarked) | Venezuelan equine encephalitis virus | viral replication |  | 40 µM | inhibition | 60% |
| Nc1ncnc2c([C@@H]3N[C@H](CO)[C@@H](O)[C@H]3O)c[nH]c12 | Venezuelan equine encephalitis virus | viral replication | HeLa, SH3 | 100 µM | inhibition | 29.2% |
| CNC(=O)[C@@H](NC(=O)[C@H](CC(C)C)[C@H](O)C(=O)NO)C(C)(C)C |  |  | PB population, mouse | intravenous, 120 µg/mouse, 24 h, preincubated with venom, added: Daboia russelii venom 2.5 x LD50 | survival | 100% |
| Fc1ccc(-c2ccnc3[nH]cc(C#Cc4cccnc4)c23)cc1 | Venezuelan equine encephalitis virus | viral replication | U-87 MG, TC-83 |  | EC50 | > 10 µM |
| O=C(CCl)NC(=O)NCCc1cccs1 | Venezuelan equine encephalitis virus | viral replication | MRC5 |  | IC50 | 2.1 ± 0.5 µM |
| Cn1cnc(Cn2c(=O)[nH]/c(=N\c3cc4cn(C)nc4cc3Cl)n(Cc3cc(F)c(F)cc3F)c2=O)n1 |  |  | human, normal renal function | oral, 375 mg | any TEAE, Severe severity | 0% |
| NC(=O)NCC1CCOC2(CCN(C(=O)C3(c4ccccc4)CCCC3)CC2)C1 (centres unmarked) | Venezuelan equine encephalitis virus | viral replication |  |  | EC50 | 3.98 µM |
| COc1ccc(-c2ccnc3[nH]nc(C#Cc4cccnc4)c23)cc1OC | Venezuelan equine encephalitis virus | viral replication | U-87 MG, TC-83 |  | EC50 | 0.92 ± 0.01 µM |
| O=C(N1CCC2(CC1)C[C@@H](CN1CCCCS1(=O)=O)CCO2)C1(c2ccccc2)CCCC1 | Venezuelan equine encephalitis virus |  |  | concentration not given, cell-based | antiviral activity | inactive |
| COc1cccc(-c2nc(C(=O)NCC=CS(C)(=O)=O)c(C)[nH]2)c1 | Venezuelan equine encephalitis virus | viral replication | MRC5 |  | IC50 | > 10 µM |
| CC[C@H](C)[C@H](NC(=O)[C@H](CC(C)C)NC(=O)[C@H](Cc1c[nH]c2ccccc12)NC(=O)[C@H](CCC(N)=O)NC(=O)[C@@H](NC(=O)[C@H](Cc1ccccc1)NC(=O)[C@H](C)NC(=O)[C@H](CCCCNC(=O)COCCOCCNC(=O)COCCOCCNC(=O)CC[C@H](NC(=O)CCCCCCCCCCCCCCCCCCC(=O)O)C(=O)O)NC(=O)[C@H](CCC(N)=O)NC(=O)[C@H](C)NC(=O)[C@@H](NC(=O)[C@H](CCCCN)NC(=O)[C@H](CC(=O)O)NC(=O)[C@H](CC(C)C)NC(=O)C(C)(C)NC(=O)[C@@H](NC(=O)[C@H](CO)NC(=O)[C@H](Cc1ccc(O)cc1)NC(=O)[C@H](CC(=O)O)NC(=O)[C@H](CO)NC(=O)[C@@H](NC(=O)[C@H](Cc1ccccc1)NC(=O)[C@@H](NC(=O)CNC(=O)[C@H](CCC(=O)O)NC(=O)C(C)(C)NC(=O)[C@@H](N)Cc1ccc(O)cc1)[C@@H](C)O)[C@@H](C)O)[C@@H](C)CC)[C@@H](C)CC)C(C)C)C(=O)N[C@@H](C)C(=O)NCC(=O)NCC(=O)N1CCC[C@H]1C(=O)N[C@@H](CO)C(=O)N[C@@H](CO)C(=O)NCC(=O)N[C@@H](C)C(=O)N1CCC[C@H]1C(=O)N1CCC[C@H]1C(=O)N1CCC[C@H]1C(=O)N[C@@H](CO)C(N)=O |  |  | healthy subjects, single ascending dose | 8.0 mg, day 29 | serum amylase | 67.4 ± 23 U/L |
| CS(=O)(=O)NCC1CCOC2(CCN(C(=O)C3(c4ccccc4)CCOCC3)CC2)C1 (centres unmarked) | Venezuelan equine encephalitis virus | viral replication |  | 40 µM | inhibition | 20% |
| CNC(=O)[C@H](Cc1c[nH]c2ccccc12)NC(=O)[C@@H](CC(=O)NO)CC(C)C | rep main protease | reporter gene (Gaussia luciferase), inhibitor |  | 20 µM | inhibition | -0.00861% |
| O=C(CCl)NCC#CC1CCCCO1 (centres unmarked) | Venezuelan equine encephalitis virus | viral replication | MRC5 |  | IC50 | > 10 µM |
| C(#Cc1c[nH]c2nccc(-c3cccs3)c12)c1cccnc1 | Venezuelan equine encephalitis virus | viral replication | U-87 MG, TC-83 |  | EC50 | 1.71 ± 0.07 µM |
| O=C(N1CCC2(CC1)CC(CN1CCCCS1(=O)=O)CCO2)C1(c2cc(F)cc(F)c2)CCCC1 (centres unmarked) | Venezuelan equine encephalitis virus | viral replication |  |  | EC50 | 1.58 µM |
| O=C(O)CCc1cc(C(=O)c2ccc(OC3CCCC3)cc2O)ccc1OCc1ccc2c(=O)[nH]oc2c1 | rep main protease | viral replication, Gluc reporter | SARS-CoV-2 | 20 µM | inhibition | 1.34% |
| COc1cc2c(cc1C(=O)Nc1ccc(C(C)(C)C)cc1)CCCCC2 | Venezuelan equine encephalitis virus | viral replication | NHDF |  | EC90 | > 40 µM |
| CC1(C(=O)N2CCC3(CC2)CC(CNS(C)(=O)=O)CCO3)CCCC1 (centres unmarked) | Venezuelan equine encephalitis virus | viral replication |  |  | EC50 | > 39.8 µM |
| C=CC(=O)N1C[C@@H]2CC[C@@H]2[C@H]1C(=O)O | Venezuelan equine encephalitis virus | viral replication | MRC5 |  | IC50 | > 10 µM |

Some of these lines once more:
| SMILES | tested on | test | system | setting | endpoint | result |
| --- | --- | --- | --- | --- | --- | --- |
| COc1ccc(-c2ccnc3[nH]nc(C#Cc4cccnc4)c23)cc1OC | Venezuelan equine encephalitis virus | viral replication | U-87 MG, TC-83 |  | EC50 | 0.92 ± 0.01 µM |
| CC1(C(=O)N2CCC3(CC2)CC(CNS(C)(=O)=O)CCO3)CCCC1 (centres unmarked) | Venezuelan equine encephalitis virus | viral replication |  |  | EC50 | > 39.8 µM |
| Fc1ccc(-c2ccnc3[nH]cc(C#Cc4cccnc4)c23)cc1 | Venezuelan equine encephalitis virus | viral replication | U-87 MG, TC-83 |  | EC50 | > 10 µM |
